Assay results of several laboratories.
± gives the spread as reported.
Sequence of UniProt P10635 (whole entry, looked up): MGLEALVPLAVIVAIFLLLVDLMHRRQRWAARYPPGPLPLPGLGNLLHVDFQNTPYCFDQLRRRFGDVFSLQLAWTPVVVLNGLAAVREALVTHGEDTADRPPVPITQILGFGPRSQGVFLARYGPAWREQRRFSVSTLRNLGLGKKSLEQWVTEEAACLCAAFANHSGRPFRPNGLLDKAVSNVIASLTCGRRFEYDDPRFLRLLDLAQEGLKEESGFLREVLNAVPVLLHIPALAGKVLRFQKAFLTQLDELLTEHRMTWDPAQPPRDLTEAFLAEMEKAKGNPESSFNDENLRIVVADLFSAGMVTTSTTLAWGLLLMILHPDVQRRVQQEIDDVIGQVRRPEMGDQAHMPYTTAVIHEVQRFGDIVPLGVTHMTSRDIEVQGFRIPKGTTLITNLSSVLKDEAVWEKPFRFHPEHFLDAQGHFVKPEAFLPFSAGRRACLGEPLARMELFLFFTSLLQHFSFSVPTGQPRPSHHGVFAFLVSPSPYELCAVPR

Structure (SMILES) | tested on | assay | test system | setting | scale | endpoint | result
CN1CCCNC(=O)c2cccc(c2)C(=O)NCCCN(C)CCCNc2cccc3c2C(=O)c2cccc(c2C3=O)NCCC1 | HSC-2 | cell growth or viability, CCK-8 | – | 0.15 µM, 48 h | – | viability | 82.2%
CCN(CC)CC#CCNc1ccnc2cc(Cl)ccc12 | Salmonella typhimurium | mini-Ames test | TA98 | 500.0 µg/well, with rat liver S9 | – | mean revertants | 17 revertants/well
CC(C)OCCOCc1ccc(OCC(O)CN(N=O)C(C)C)cc1 (stereo not shown) | Salmonella typhimurium | Ames test | TA1535 | 50 µg/plate, without metabolic activation | relative to: solvent control | revertant fold increase | 1 fold
O=C(Nc1cnccc1-c1ccc([18F])cc1)c1ccnc(NC(=O)C2CC2)c1 | – | – | mice, transgenic, GSK-3β, early-stage, blood | intravenous, dose not given, 120 min, together with: tariquidar 15 mg/kg i.v. pre-dose | – | SUV | 0.22
O=C1C2CC3CC1CC(C(=O)N1CCN(c4ccc([N+](=O)[O-])c5ncccc45)CC1)(C3)C2 | Salmonella typhimurium | Ames test | TA98 | 0.13 µg/well, without S9 | – | mean revertant colonies | 5 colonies/well
N#C[C@@H]1CC(F)(F)CN1C(=O)CNC(=O)c1ccnc2c(NC(=O)[C@H](CCCCNC(=O)CCOCCOCCOCCOCCOCCOCCNC(=O)CN3CCN(CC(=O)[O-])CCN(CC(=O)[O-])CCN(CC(=O)[O-])CC3)NC(=O)CCCc3ccc(I)cc3)cccc12.[177Lu+3] | U-87 MG tumour model | – | host not given, heart | 48 h, tumour-bearing | – | tracer uptake | 0.24 %ID/g
O=C(Nc1cnccc1-c1ccc([18F])nc1)c1ccnc(NC(=O)C2CC2)c1 | – | – | FVB/NJ mice (both sexes), muscle | intravenous, dose not given, 120 min | – | SUV | 0.122
C=C(NC(=O)c1csc(-c2nc3c(cc2O)-c2nc(cs2)C(=O)NC(C(C)O)C(=O)NC(=C(C)OC)c2nc(cs2)C(=O)NC2c4nc(cs4)C(=O)NC(COC(=O)c4c5c6c(cccc6n4O)COC(=O)C(OC4CC(C)(O)C(N(C)C)C(C)O4)C2OC5)c2nc-3cs2)n1)C(N)=O (stereo not shown) | – | – | ICR mice, Streptococcus pneumoniae ATCC 49169 infected, immunocompromised, blood | intravenous, 4 mg/kg/day three times daily | – | half-life | 6.31 h
CNC(=O)C1CCCN(C(=O)C2CC3CCC2N3C(=O)[C@@H]2C[C@@H](O)CN2C(=O)NCc2cccc(Cl)c2F)C1 (mixture of isomers) | Cytochrome P450 2D6 (CYP2D6, Homo sapiens, UniProt P10635) | enzyme activity, inhibitor, time-dependent inhibition | – | 50 µM, preincubated without NADPH | relative to: negative control | remaining activity | 98.5%
O=C1NC2(CC2)COc2ncc(F)cc2[C@H]2COCCN2c2ccn3ncc1c3n2 | Salmonella typhimurium | Ames test | TA97a | 150 µg/plate, 48 h, together with: without S9 | – | revertant colonies | 89 ± 16 revertants/plate
